Measured values pooled from the literature.
Lines come from different studies, so protocols differ. pIC50: −log10 of the molar value.
UniProt P11388, sequence (whole entry, looked up): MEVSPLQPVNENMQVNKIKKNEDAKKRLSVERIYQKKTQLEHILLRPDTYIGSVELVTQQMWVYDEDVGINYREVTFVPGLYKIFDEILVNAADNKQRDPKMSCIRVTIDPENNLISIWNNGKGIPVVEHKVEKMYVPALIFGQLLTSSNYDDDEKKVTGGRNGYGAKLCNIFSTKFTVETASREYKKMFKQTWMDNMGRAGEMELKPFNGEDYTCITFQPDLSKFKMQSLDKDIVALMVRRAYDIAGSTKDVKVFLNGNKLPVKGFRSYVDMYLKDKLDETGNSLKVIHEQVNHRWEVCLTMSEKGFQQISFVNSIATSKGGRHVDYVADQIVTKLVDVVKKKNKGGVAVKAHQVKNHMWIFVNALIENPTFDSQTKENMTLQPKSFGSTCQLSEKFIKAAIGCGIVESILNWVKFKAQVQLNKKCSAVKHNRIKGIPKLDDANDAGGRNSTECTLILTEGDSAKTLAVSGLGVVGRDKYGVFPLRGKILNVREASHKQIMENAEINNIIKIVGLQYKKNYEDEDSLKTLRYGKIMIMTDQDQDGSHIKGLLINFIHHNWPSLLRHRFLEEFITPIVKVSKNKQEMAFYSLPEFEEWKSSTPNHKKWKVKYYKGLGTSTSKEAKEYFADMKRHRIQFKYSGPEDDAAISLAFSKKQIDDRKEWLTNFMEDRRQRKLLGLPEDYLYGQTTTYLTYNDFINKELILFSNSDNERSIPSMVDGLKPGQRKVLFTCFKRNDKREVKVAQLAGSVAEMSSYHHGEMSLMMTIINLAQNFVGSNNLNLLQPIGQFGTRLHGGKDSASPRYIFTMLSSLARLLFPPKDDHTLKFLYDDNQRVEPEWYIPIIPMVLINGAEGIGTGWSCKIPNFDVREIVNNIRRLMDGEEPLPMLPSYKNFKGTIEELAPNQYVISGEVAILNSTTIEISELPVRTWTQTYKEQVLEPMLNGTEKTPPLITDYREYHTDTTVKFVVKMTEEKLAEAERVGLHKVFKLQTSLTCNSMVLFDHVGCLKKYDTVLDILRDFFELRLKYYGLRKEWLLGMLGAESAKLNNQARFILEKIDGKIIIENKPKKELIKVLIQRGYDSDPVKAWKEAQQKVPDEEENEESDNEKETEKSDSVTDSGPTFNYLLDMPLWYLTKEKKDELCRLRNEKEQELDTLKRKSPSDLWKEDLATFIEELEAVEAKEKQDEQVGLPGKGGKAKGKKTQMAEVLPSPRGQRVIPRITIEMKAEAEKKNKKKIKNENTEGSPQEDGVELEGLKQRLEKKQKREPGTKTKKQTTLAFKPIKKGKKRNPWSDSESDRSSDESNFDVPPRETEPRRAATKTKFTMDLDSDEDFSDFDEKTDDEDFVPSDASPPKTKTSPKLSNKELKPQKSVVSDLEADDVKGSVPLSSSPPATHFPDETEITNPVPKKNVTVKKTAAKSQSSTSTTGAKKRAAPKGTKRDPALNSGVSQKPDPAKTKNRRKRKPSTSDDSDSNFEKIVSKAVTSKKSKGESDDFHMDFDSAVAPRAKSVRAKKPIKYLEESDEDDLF

SMILES	target or system	assay	test system	setting	how to read	quantity	value
O=P(O)(O)OC1O[C@H](CO)[C@@H](O)[C@H](O)[C@@H]1O (some centres unmarked)	uncharacterized protein (Bacteroides thetaiotaomicron, UniProt Q8A183)	activator, phosphate release	–	concentration not given, with: Mg2+	–	phosphatase activity	inactive
CC1COc2ccccc2N1C(=O)C(Cl)Cl (centres unmarked)	cytosolic glutathione S-transferase	substrate depletion	rhesus monkey, female, liver cytosol	5 µM, pH 7.4, with: glutathione	–	intrinsic clearance	1400 µL/min/mg
[Mg+2]	uncharacterized protein (Bacteroides thetaiotaomicron, UniProt Q8A4G9)	phosphatase activity, activator, phosphate release	–	5 mM, EDTA-treated enzyme, with: substrate 9 mM	relative to: activity with this ion	relative specific activity	1
Fc1ccccc1Cc1nc(-c2nc(C(F)(F)F)n[nH]2)cn2ccnc12	–	–	healthy human subjects, both sexes	oral, 10 mg, fed	–	subjects with postural dizziness	7.7%
N#CCC1CCN(c2nc(Nc3ccc(N4CCC(O)CC4)cc3)c3c(=O)[nH]ncc3n2)CC1	–	vs placebo, Olink multiplex	human, serum	80 mg, day 15, unit not given	relative to: placebo	GIF level difference	1.42
COC(=O)Nc1c(N)nc(-c2nn(Cc3ccccc3F)c3ncc(F)cc23)nc1N	–	–	human, fasting, plasma	5 mg single dose, alone, geometric mean	–	Cmax	142 ng/mL
Cc1c(S(=O)(=O)N2CCc3n[nH]cc3C2)cc(C(=O)NCc2cccc3cnn(C)c23)n1C	Replicase polyprotein 1ab, nsp14 (rep, Severe acute respiratory syndrome coronavirus 2, UniProt P0DTD1)	inhibitor	–	–	–	pIC50	9.74
COc1cc([C@@H]2c3cc4c(cc3[C@@H](O[C@@H]3O[C@@H]5CO[C@@H](C)O[C@H]5[C@H](O)[C@H]3O)[C@H]3COC(=O)[C@H]23)OCO4)cc(OC)c1O	TOP2A (Homo sapiens, UniProt P11388)	DNA cleavage	–	7.8 µM, replicate 2	–	linear DNA	7.94%
